Published values collected from several papers.
Lines come from different studies, so protocols differ. Values joined by “and” are separate records of one study, mostly repeats; a detail may differ. Numbers after ± are the reported error.
Organism: Escherichia coli

| SMILES | test | system | setting | scale | measurement | result |
| --- | --- | --- | --- | --- | --- | --- |
| CC(C)N(N=O)C(C)C | mutagenicity, Ames plate incorporation | WP2 uvrA pKM101 | 2500 µg/plate, without S9, methanol |  | revertant colonies per plate | 141 ± 16 |
| Nc1ccc2cc3ccccc3cc2c1 | preincubation Ames test | WP2 uvrA | 100 µg per plate, with: rat liver S9 |  | revertant colonies per plate | 131 |
| Nc1ccc2cc3ccccc3cc2c1 |  | WP2 uvrA | 20 µg/plate, with: rat liver S9 |  | mean revertants per plate | 181 revertants/plate |
| COS(C)(=O)=O | plate incorporation Ames test | WP2 uvrA | 1 µL per plate |  | revertant colonies per plate | 409 |
| Cc1cc(C(=O)NC(C)(C)COc2cccc3c2C(N)=NS(=O)(=O)N3)cc(C)n1 | Ames test, initial | WP2 uvrA | 1500 µg/plate, with: rat liver S9 | reference: solvent control | revertant ratio | 1.1 |
| NCC(=O)O |  | MG1655 |  |  | half-life | 16.2 h |
| CC(=O)N1CCC(C(=O)N2CCN3C(=O)c4cc(-c5ccccc5)ccc4NC(=O)C3C2)CC1 (stereo not drawn) |  | WP2 uvrA | 5000 µg/plate, without S9 |  | revertants per plate | 20.5 |
| CN(CC(C)(C)C)N=O | mutagenicity, Ames plate incorporation | WP2 uvrA pKM101 | 1500 µg/plate, without S9, methanol |  | revertant colonies per plate | 179 ± 13 |
| COS(C)(=O)=O | Ames test, initial | WP2 uvrA | 1000 µg/plate | reference: solvent control | revertant ratio | 12.8 |
| COS(C)(=O)=O | Ames test | WP2 uvrA pKM101 | 0.2 µg/well, 48 h, without S9 |  | revertant colonies | 480 colonies/well and 624 colonies/well and 560 colonies/well |
| Nc1ccc2cc3ccccc3cc2c1 | Ames test, initial | WP2 uvrA | 15 µg/plate, with: rat liver S9 | reference: solvent control | revertant ratio | 9.5 |
| CC(C)N(C)N=O | mutagenicity, Ames plate incorporation | WP2 uvrA pKM101 | 2500 µg/plate, 3 d, without S9, methanol |  | revertant colonies per plate | 155 ± 23 |
